Experimental data gathered from unrelated publications.
A part holds a random share of what one study measured.
Chain of UniProt Q13163 (whole entry, looked up): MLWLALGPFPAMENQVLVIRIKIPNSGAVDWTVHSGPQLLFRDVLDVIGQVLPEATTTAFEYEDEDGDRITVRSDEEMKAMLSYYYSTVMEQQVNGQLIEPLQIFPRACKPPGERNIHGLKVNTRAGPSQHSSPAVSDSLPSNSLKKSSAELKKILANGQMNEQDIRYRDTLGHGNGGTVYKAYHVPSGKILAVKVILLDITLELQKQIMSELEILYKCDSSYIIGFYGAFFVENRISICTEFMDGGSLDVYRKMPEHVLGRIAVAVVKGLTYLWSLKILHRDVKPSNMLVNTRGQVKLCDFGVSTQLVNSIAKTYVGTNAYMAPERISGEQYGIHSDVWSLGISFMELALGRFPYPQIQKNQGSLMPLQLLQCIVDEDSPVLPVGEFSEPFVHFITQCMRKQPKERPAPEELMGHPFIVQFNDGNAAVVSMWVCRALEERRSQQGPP
Chain of UniProt O00506 (whole entry, looked up): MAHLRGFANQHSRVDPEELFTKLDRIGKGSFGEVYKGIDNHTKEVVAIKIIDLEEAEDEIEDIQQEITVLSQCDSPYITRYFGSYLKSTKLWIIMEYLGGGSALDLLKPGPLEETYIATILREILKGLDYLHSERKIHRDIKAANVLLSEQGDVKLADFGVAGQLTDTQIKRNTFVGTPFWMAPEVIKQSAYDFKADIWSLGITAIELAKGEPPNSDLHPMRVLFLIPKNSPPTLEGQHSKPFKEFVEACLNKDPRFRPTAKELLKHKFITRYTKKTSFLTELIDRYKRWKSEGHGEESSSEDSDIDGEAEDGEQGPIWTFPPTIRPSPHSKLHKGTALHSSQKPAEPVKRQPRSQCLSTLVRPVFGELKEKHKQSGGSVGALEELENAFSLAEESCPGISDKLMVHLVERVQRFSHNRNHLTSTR
Chain of UniProt P80192 (whole entry, looked up): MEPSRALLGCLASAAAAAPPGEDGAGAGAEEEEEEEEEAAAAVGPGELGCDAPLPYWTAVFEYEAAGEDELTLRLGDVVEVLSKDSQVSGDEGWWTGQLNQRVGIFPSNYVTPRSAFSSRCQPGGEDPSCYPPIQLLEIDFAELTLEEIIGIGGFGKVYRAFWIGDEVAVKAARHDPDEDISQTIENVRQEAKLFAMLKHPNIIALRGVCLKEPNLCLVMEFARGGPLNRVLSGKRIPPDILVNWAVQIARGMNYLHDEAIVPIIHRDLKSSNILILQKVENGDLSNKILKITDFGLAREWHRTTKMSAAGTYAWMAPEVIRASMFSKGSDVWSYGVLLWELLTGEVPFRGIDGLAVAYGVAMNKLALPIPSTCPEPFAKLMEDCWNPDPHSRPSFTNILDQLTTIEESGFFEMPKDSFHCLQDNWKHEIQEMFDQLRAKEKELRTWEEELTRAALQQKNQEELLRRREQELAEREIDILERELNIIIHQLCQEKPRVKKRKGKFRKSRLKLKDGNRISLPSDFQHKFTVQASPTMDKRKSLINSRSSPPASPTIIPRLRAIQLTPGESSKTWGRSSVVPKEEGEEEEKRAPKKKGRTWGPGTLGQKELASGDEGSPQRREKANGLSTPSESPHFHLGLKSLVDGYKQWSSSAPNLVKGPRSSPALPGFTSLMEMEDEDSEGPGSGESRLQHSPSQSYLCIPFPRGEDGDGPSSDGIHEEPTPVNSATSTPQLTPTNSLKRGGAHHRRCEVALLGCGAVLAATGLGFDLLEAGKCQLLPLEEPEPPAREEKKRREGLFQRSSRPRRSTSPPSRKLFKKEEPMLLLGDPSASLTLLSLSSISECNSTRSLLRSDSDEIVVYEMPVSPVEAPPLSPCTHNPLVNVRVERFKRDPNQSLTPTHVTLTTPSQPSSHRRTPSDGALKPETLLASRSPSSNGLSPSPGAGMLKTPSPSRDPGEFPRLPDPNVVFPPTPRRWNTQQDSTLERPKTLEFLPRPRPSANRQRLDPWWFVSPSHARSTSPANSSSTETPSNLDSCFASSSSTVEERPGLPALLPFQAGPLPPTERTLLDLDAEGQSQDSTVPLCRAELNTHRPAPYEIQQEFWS
Chain of UniProt Q04912 (whole entry, looked up): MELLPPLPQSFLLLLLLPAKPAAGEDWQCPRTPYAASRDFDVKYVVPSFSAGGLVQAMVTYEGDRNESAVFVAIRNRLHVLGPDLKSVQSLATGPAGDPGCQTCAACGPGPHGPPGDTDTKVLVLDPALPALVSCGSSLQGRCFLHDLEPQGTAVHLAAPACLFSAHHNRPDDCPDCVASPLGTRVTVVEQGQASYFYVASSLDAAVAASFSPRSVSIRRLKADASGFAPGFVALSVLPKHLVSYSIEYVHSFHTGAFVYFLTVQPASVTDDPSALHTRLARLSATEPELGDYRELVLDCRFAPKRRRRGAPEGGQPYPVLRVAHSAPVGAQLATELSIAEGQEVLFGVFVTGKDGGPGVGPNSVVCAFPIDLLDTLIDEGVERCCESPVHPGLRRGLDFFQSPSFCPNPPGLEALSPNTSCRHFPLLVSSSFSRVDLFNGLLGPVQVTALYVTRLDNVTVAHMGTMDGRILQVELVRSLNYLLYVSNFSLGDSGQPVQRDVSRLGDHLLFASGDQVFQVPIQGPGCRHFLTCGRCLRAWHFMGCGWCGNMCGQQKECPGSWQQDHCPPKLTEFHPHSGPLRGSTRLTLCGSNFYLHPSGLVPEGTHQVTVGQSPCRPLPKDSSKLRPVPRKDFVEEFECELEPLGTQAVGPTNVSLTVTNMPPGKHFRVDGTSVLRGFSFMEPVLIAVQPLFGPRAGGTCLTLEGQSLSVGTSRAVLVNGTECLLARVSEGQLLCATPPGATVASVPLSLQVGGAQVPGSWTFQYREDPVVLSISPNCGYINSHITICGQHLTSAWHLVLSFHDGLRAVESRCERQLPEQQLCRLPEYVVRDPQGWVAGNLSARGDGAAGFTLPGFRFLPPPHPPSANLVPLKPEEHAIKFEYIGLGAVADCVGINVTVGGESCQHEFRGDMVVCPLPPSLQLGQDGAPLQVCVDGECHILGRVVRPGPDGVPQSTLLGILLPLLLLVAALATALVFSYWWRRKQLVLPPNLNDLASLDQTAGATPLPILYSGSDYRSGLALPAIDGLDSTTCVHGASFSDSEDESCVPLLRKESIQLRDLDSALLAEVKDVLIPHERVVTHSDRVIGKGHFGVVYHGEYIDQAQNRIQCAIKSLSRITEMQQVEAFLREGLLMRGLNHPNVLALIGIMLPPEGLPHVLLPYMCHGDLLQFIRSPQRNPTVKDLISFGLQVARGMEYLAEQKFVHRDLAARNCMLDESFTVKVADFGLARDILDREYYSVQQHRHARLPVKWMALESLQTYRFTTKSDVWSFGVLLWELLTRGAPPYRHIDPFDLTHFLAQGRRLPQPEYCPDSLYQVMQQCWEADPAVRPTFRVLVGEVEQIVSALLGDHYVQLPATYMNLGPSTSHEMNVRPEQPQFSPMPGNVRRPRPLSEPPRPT
Chain of UniProt Q08881 (whole entry, looked up): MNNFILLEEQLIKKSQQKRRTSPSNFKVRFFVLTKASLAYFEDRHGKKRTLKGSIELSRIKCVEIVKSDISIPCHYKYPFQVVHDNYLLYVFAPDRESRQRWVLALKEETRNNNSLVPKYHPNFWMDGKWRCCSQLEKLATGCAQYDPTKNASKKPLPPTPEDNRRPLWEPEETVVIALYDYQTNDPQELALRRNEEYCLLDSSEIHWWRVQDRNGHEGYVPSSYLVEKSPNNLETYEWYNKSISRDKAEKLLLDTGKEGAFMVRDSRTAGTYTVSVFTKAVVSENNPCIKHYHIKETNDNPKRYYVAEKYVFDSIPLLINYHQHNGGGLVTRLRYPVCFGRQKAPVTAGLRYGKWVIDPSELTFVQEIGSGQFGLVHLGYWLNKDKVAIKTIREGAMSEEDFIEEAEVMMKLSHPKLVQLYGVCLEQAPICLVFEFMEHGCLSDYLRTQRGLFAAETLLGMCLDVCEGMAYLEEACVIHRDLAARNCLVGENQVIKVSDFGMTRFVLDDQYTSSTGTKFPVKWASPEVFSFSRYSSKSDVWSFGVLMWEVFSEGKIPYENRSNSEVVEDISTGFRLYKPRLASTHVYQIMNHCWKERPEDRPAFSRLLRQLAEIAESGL

Block 1
SMILES: CSc1cccnc1N1CCN(Cc2nc3ccccc3[nH]2)CC1
Read-out: cell-free assay
Technique: competition with immobilised ligand
Concentration: 1 µM
Measurement: remaining binding
target = MAP3K9 (Homo sapiens, UniProt P80192); value = 100%
target = MST1R (Homo sapiens, UniProt Q04912); value = 100%
target = MAP4K4 (Homo sapiens, UniProt O95819); value = 95%
target = STK25 (Homo sapiens, UniProt O00506); value = 100%
target = MAP2K5 (Homo sapiens, UniProt Q13163); value = 72%
target = ITK (Homo sapiens, UniProt Q08881); value = 97%

Block 2
Compound: COc1ccc(-c2c(Nc3ccccn3)[nH]c3c(C4=CCCCC4)c(-c4ccccc4)nn3c2=O)cc1
Technique: LC-MS/MS
Host: human cancer patients
Medium: plasma
Measurement: plasma concentration
assay = refers to: methionine; conditions = QD, dose not given, 4 h, median, cycle 1 day 50; value = 69200 ng/mL
assay = refers to: methionine; conditions = QD, dose not given, 0 h, geometric mean, cycle 1 day 50; value = 64800 ng/mL
assay = refers to: methionine; conditions = QD, dose not given, 6 h, geometric mean, cycle 1 day 50; value = 64800 ng/mL
assay = refers to: S-adenosylmethionine; conditions = 200 mg BID, 2 h, mean, cycle 1 day 200; value = 10.5 ng/mL
assay = refers to: S-adenosylmethionine; conditions = 200 mg BID, 8 h, median, cycle 1 day 200; value = 12 ng/mL

Block 3
Host: human
Medium: microsomes or S9
Concentration: 2 µM
Time: 0.5 h
Measurement: remaining compound
Structure (SMILES) = Cc1cc(C)cc(C(O)CN(C)Cc2cc(Cl)cn2C)c1 (centres unmarked); value = 5.15%
Structure (SMILES) = CC(NCc1csc(Br)c1)c1cc2ccccc2o1 (centres unmarked); value = 1.3%
Structure (SMILES) = CC(=O)N1N=C(c2ccc(C)cc2)OC1c1ccc(C(C)C)cc1 (centres unmarked); value = 19.7%
Structure (SMILES) = O=C1c2[nH]nc(-c3ccccc3)c2C(c2ccccn2)N1CCc1c[nH]c2ccccc12 (centres unmarked); value = 10.9%
Structure (SMILES) = CCN(CC)C(=O)c1sc(NC(=O)c2cc(OC)cc(OC)c2)c(C(=O)OC(C)C)c1C; value = 16.7%

Block 4
Target: Death-associated protein kinase 2 (DAPK2, Homo sapiens, UniProt Q9UIK4)
Chain of UniProt Q9UIK4 (whole entry, looked up): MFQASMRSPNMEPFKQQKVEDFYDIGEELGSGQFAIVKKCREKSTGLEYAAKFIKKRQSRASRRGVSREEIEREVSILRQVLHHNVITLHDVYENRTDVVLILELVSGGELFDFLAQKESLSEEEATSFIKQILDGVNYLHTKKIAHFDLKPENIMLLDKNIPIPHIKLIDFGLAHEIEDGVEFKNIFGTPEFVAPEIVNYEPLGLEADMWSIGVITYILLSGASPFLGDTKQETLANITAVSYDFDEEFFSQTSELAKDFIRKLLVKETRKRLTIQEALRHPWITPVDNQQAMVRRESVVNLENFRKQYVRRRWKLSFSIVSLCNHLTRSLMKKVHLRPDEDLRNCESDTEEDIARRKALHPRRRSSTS
Read-out: enzyme activity
Action: inhibitor
Concentration: 0.5 µM
Reference: control
Measurement: remaining activity
SMILES = Cc1cccc(-c2[nH]c(C(C)(C)C)nc2-c2ccc3c(c2)OCO3)n1; value = 102%
SMILES = O=C1NC(=O)C(c2cn(CCCn3ccnc3)c3ccccc23)=C1Nc1ccccc1; value = 104%
SMILES = CNC(=O)c1cc(Oc2ccc(NC(=O)Nc3ccc(Cl)c(C(F)(F)F)c3)cc2)ccn1; value = 111%
SMILES = Nc1[nH]nc2nc3ccccc3nc12; value = 91%
SMILES = CC(C)[C@H](CO)Nc1nc(Nc2cc(N)cc(Cl)c2)c2ncn(C(C)C)c2n1; value = 101%
SMILES = O=C1NC(=O)C(c2cn(CCCO)c3ncccc23)=C1c1cnccn1; value = 88.4%
SMILES = CCOC(=O)c1c(C)[nH]c(/C=C2\C(=O)Nc3ccccc32)c1C; value = 96.3%
SMILES = O=C(CCCc1ccc(-c2ccccc2F)cc1)Nc1ccc(O)cc1; value = 106%
SMILES = COc1ccc(CNC(=O)Nc2ncc([N+](=O)[O-])s2)cc1; value = 93.3%
SMILES = CO[C@H]1C[C@@H]2CC[C@@H](C)[C@@](O)(O2)C(=O)C(=O)N2CCCC[C@H]2C(=O)O[C@H]([C@H](C)C[C@@H]2CC[C@@H](O)[C@H](OC)C2)CC(=O)[C@H](C)/C=C(\C)[C@@H](O)[C@@H](OC)C(=O)[C@H](C)C[C@H](C)/C=C/C=C/C=C/1C; value = 112%
SMILES = COc1cc2ncnc(Nc3ccc(Oc4ccccc4)cc3)c2cc1OC; value = 102%
SMILES = Cn1sc(=O)n(Cc2ccccc2)c1=O; value = 94%
SMILES = NCCNc1ncc(C(N)=O)c(Nc2cccc(C(F)(F)F)c2)n1; value = 100%
SMILES = Cc1ccc(Nc2nccc(N(C)c3ccc4c(C)n(C)nc4c3)n2)cc1S(N)(=O)=O; value = 93%
SMILES = O=S(=O)(c1cccc2cnccc12)N1CCCNCC1; value = 83.6%
SMILES = COc1cc2ncnc(Nc3ccc(F)c(Cl)c3)c2cc1OCCCN1CCOCC1; value = 93.2%

Some of these lines once more (block 1):
target = MST1R (Homo sapiens, UniProt Q04912); value = 100%
target = MAP4K4 (Homo sapiens, UniProt O95819); value = 95%
target = STK25 (Homo sapiens, UniProt O00506); value = 100%
target = MAP2K5 (Homo sapiens, UniProt Q13163); value = 72%
